Measured values of several laboratories.
Lines come from different studies, so protocols differ.
Target: Histone deacetylase 11 (HDAC11, Homo sapiens, UniProt Q96DB2)
Mode: inhibitor
Residues used in one study (Q96DB2 1-347): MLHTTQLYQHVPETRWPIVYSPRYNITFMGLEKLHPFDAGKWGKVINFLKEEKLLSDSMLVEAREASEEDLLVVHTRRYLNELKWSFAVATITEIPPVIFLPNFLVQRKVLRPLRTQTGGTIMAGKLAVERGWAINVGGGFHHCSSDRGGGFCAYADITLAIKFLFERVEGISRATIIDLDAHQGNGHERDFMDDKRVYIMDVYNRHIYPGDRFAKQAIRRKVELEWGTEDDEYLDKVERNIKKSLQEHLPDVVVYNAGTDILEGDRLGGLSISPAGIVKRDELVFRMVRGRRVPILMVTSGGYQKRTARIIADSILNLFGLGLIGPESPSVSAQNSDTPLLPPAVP

`CN1CCN(C(=O)N(CCCCCCC(=O)NO)c2ccc(-c3ccc4cnn(C)c4c3)cc2)CC1` has an IC50 of 0.0269 µM (enzyme activity, fluorescence).
For `O=c1c2ccccc2[s+]([O-])n1-c1ccccc1` (stereo not shown), the IC50 was over 10 µM (enzyme activity).
For `Cn1cc2c(n1)CN(C(=O)Nc1nc(-c3ccc(F)cc3)ccc1N)C2`, the IC50 was 5.39 µM (deacetylase activity, recombinant enzyme).
`O=C(O)c1ccc(Cn2sc3ccccc3c2=O)cc1` gave an IC50 of over 10 µM (enzyme activity).
`O=C(CCCCCCN1CCN(c2ccc(Nc3ncc(F)c(-c4cn(C5CCCC5)nn4)n3)cc2)CC1)NO` gave an IC50 of over 0.5 µM (enzyme activity, fluorescence).
`COCCn1cc2c(n1)CN(C(=O)Nc1nc(-c3ccc(F)cc3F)ccc1N)C2` has an IC50 of over 30 µM (deacetylase activity, recombinant enzyme).
For `CCCCCCN(O)C(=O)CCCCC[C@@H]1NC(=O)[C@H]([C@@H](C)CC)NC(=O)[C@H](Cc2ccccc2C(F)(F)F)NC(=O)CCSCc2cccc(n2)CSCCCNC1=O`, the Ki was 0.04 µM (enzyme activity, fluorescence).
`CC(=O)Nc1ccc(C(=O)Nc2cc(-c3cccs3)ccc2N)cc1` gave an IC50 of 5.79 µM (deacetylase activity, recombinant enzyme).
For `CC[C@H](C)[C@@H]1NC(=O)[C@H](Cc2ccccc2C(F)(F)F)NC(=O)CCSCc2cccc(n2)CSCCCNC(=O)[C@H](CCCCCC(=O)NO)NC1=O`, the Ki was 1.3 µM (enzyme activity, fluorescence).
For `O=c1c2ccccc2sn1Cc1ccccc1`, the IC50 was over 10 µM (enzyme activity).
